Results gathered from unrelated publications.
Protocols differ between the studies behind these lines. Numbers after ± are the reported error.
Organism: Salmonella typhimurium

The revertant ratio of `Cc1cc(C(=O)NC(C)(C)COc2cccc3c2C(N)=NS(=O)(=O)N3)cc(C)n1` is reported as 1 (Ames test, initial; TA98; 15.0 µg/plate, added: rat liver S9; baseline: solvent control).
For `CC(C)N(N=O)C(C)C`, “revertant colonies per plate” read 142 ± 10 (mutagenicity, Ames plate incorporation; TA100; 2500 µg/plate, without S9, methanol).
The survival of `OC(CCN1CC=C(c2ccc(F)cc2)CC1)c1ccc(F)c2ccccc12` (stereo not drawn) is reported as 112% (SOS/umu test; TA1535/pSK1002; 0.002 mg/mL, 4 h, with S9, lower range).
For `CC(=O)N1CCC(C(=O)N2CCN3C(=O)c4cc(-c5ccccc5)ccc4NC(=O)C3C2)CC1` (stereo not drawn), “fold increase in revertants” read 1.2 (TA98; 1.58 µg/plate, added: rat liver S9; baseline: vehicle).
The survival of `O=[N+]([O-])c1ccc(N2CCC(NCCC(O)c3ccc(F)c4ccccc34)CC2)c(C(F)(F)F)c1` (stereo not drawn) is reported as 108% (SOS/umu test; TA1535/pSK1002; 6.1e-05 mg/mL, 4 h, without S9).
`CNC(=O)c1c(N(C)N=O)ncn1C` — result for “revertant colonies per plate”: 25.3 ± 2 (mutagenicity, Ames plate incorporation; TA1535; 5000 µg/plate, without S9, methanol).
The survival of `O=[N+]([O-])c1ccc(NC2CCNCC2)c(C(F)(F)F)c1` is reported as 143% (SOS/umu test; TA1535/pSK1002; 0.004 mg/mL, 4 h, without S9, full range).
For `N#C[C@@]1(n2ccc(N)nc2=O)O[C@H](CO)[C@@H](O)[C@H]1O`, the viability was 80% (TA100; 50 µM, without S9; baseline: control).
`COCCN(CCOC)N=O`: “revertant colonies per plate” 21.3 ± 4 (mutagenicity, Ames plate incorporation; TA1535; 5000 µg/plate, 3 d, without S9, methanol).
`COc1cccc(-c2n[nH]c(SCc3ccccn3)n2)c1OC`: “revertant colonies per plate” 19 (Ames preincubation; TA98; 0.50 mg per plate, added: rat liver S9).
`CN(CC(C)(C)C)N=O` — result for “revertant colonies per plate”: 236 ± 40 (mutagenicity, Ames plate incorporation; TA100; 5000 µg/plate, without S9, methanol).
`O=[N+]([O-])c1ccc(N2CCN(CCC(O)c3ccc(F)cc3)CC2)c(C(F)(F)F)c1` (stereo not drawn) gave a survival of 111% (SOS/umu test; TA1535/pSK1002, TGA medium; 0.000488 mg/mL, 4 h, without S9).
